Assay results collected from several papers.
A part holds a random share of what one study measured.

Study 1
Target: Prothrombin, mature alpha-thrombin (F2, Homo sapiens, UniProt P00734)
Method: aptamer microarray, sandwich
Molecule type: DNA with 2'F-ANA
Matrix: in vitro
Tested at: 200 nM
Setting: whole 15-mer aptamer, many near background
Together with: Cy3 exosite-II aptamer, 400 nM
Reading: higher = stronger binding
Sequence: GGTTGGTGTGGTTGG
Modification	mean fluorescence intensity [a.u.]
2'F-ANA at 2 3 6 9 11 12 13 14 15	359
2'F-ANA at 3 4 6 8 9 12 13 14	257
2'F-ANA at 1 4 5 8 9 10 11	48.4
2'F-ANA at 1 3 4 5 6 8 9 11 12 13 14 15	48.9
2'F-ANA at 1 3 4 5 6 10	47.1
2'F-ANA at 1 2 5 6 8 9 11 14	51.1
2'F-ANA at 2 4 8	539
2'F-ANA at 1 2 4 8 10 13 14	80
2'F-ANA at 2 3 5 6 7 15	90.9
2'F-ANA at 2 3 9 10 11 13 15	318
2'F-ANA at 1 2 5 8 9 11 13 15	52.9
2'F-ANA at 1 2 3 4 6 8 11 12 14 15	120
2'F-ANA at 4 5 6 12 13	84.7
2'F-ANA at 3 5 7 9 11 15	95
2'F-ANA at 1 6 7 8 10 11 14 15	51.2
2'F-ANA at 1 2 3 7 9 10 11 12	84.7
2'F-ANA at 3 4 5 6 8 9 13 14	101
2'F-ANA at 2 4 5 6 7 11 12	114
2'F-ANA at 3 6 10 12 13 14 15	413
2'F-ANA at 5 7 10 11 12 13 14	51.7
2'F-ANA at 3 4 5 8 9 10 11 12 13 15	82
2'F-ANA at 3 5 8 11 14	61
2'F-ANA at 1 2 3 4 5 6 7 9 11 15	51.3
2'F-ANA at 2 3 5 6 7 9 11 12 13 14	62.4
2'F-ANA at 1 7 9 10 11 12	64.5

Study 2
Target: RING finger protein unkempt homolog, zinc fingers 1-6, GST-SBP tag (UNK, Homo sapiens, UniProt Q9C0B0, residues 30-357)
Method: RNA Bind-n-Seq
Molecule type: RNA
Matrix: in vitro
Tested at: not given
Setting: RNA with constant flanks, ends assumed
Baseline: input RNA pool
Reading: higher = stronger binding
Target sequence (chain): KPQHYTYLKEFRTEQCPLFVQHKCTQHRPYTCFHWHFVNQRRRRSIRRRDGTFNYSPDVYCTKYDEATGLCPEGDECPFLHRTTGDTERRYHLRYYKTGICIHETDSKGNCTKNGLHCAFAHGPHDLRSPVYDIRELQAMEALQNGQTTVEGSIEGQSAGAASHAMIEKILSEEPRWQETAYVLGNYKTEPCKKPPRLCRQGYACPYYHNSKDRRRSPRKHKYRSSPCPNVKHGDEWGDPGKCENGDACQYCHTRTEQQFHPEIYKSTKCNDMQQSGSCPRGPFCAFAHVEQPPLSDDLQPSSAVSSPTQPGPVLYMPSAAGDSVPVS
Sequence	bound/input enrichment [ratio]
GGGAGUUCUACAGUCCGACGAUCCACUUGAUGCCCCCAAGAAUCCUAGUAGAAUGUUUACUACCAAAUGGAAUGAUAGUGACUUCCGAAUGCCUCCGUGAGGCUACAUUAAUAACCAUAAAGCAUGAACUAUUUAAAGAAGCACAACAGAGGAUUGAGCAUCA	0.927
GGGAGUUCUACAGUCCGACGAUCUUGUUGGGAUCUAGGCUUCCUUACUUCUGGAGAAGUGGCCAUCCAACACCCACCUGUGCCACCGAGGGACAGGGCCUCCACAGCUGCCUCUGCUGCUUGUCCUGUCCCCUCAUACCAGAGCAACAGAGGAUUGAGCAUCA	0.136
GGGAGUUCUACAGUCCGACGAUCGUGAGCUGUGUGCCUUGUUUGGGGGGUGUGGGGGACUUCUCCCAGUGGUGACACUGAACUUCCGGAGAAAAUGCGAAUGGGUAGGAGGACGGUCUUAUUUGAGUCACUUAAGGAGCAAGGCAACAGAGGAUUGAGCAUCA	0.621
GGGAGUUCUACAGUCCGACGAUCGUGUCUAAAUGUUCUGAAGAAAUAAAGAACUAUAUUGAAGAACGUUCUGGAGAGGAUCCUCCCGUAAAGGGAAUUCCAGAAGACAAGAACCCCUUUAAAGAAAAAGGCAGCUGUGUUAUUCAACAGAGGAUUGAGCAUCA	0.157
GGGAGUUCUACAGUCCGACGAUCUUGGUGUCCAGAGCUCACCAGCUGGUGAUGGAGGGAUAUAACUGGUGCCAUGACCGGAACGCCGUAACAAUUUUCAGUGCUCCAAACUAUUGCUAUCGUUGUGGUAACCAAGCUGCAAUCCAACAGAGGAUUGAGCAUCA	0.0866
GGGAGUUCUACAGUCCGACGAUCCUGCUUUUGAUCCUGCCUGUUGUUGAAGCAGUGGAAGCUGGAGACGCGAUUGCACUCUUAUCCGGUGUGGUUCUCAGCAUUACCGGCAUCUGUGCUUGCUUGGGGAUAUACGCAAGAAAGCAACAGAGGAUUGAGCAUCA	0.0301
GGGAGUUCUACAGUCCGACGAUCGCUUCGACCCAGCUGAGGAGCGAAGAGCUGCUGGCAGCGCCGAUUCCCAGCACGCCGCUUUUCCGAACUUCAGUUGUCAAAAUGGGCAGAAUCUUUCUUGACCAUAUCGGUGGUACCCGUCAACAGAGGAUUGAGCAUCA	0.109
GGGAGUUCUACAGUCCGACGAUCAGAGAACCAGCCCUGGAUGGCGGGUUUCAGAUGCAUUAUGAGAAGACCCCGUUUGAUCAGUCCGCUUUUAUCGAAGAGCUUUUUUCACUGAUGGUUGUCAAUCGUCUGACCGAAGAACUCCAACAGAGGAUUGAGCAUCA	0.365

Study 3
Target: UBE2B UBC core domain (UniProt P63146)
Sequence of UniProt P63146 (whole entry, looked up): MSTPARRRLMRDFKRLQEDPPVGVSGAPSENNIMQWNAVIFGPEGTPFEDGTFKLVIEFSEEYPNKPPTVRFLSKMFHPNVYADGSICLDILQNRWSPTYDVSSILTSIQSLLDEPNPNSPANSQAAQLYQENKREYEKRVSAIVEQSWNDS
Method: yeast two-hybrid
Matrix: yeast
Setting: mostly zero background
Baseline: not given
Reading: higher = stronger interaction
B1: MSL2 RING domain (UniProt Q9HCI7); chain LLPYFRQSLSCCVCGHLLQDPIAPTNSTCQHYVCKTCKGKKMMMKPSCSWCKDYEQFEENKQ
B2: RNF150 RING domain (UniProt Q9ULK6); chain DKETESDFDNCAVCIEGYKPNDVVRILPCRHLFHKSCVDPWLLDHRTCPMCKMNILKALGIP
B3: TRIM10 RING domain (UniProt Q9UDY6); chain SVTSLADEVNCPICQGTLREPVTIDCGHNFCRACLTRYCEIPGPDLEESPTCPLCKEPFRPGSFRP
B4: PHF7 RING domain (UniProt Q9BWX1); chain IQHGHVGEESCILCCEDLSQQSVENIQSPCCSQAIYHRKCIQKYAHTSAKHFFKCPQCNNRKEFPQEML
B5: TRIM55 RING domain (UniProt Q9BYV6); chain TMDNLEKQLICPICLEMFTKPVVILPCQHNLCRKCASDIFQASNPYLPTRGGTTMASGGRFRCPSCRHEVVLDRHG
B6: NSMCE1 RING domain (UniProt Q8WV22); chain RETYPDAVKICNICHSLLIQGQSCETCGIRMHLPCVAKYFQSNAEPRCPHCNDYWPHEIPKV
B7: RNF43 RING domain (UniProt Q68DV7); chain SGSSCSSAPVCAICLEEFSEGQELRVISCLHEFHRNCVDPWLHQHRTCPLCMFNITEGDSFS
Sequence	lacZ reporter activity
B1 (MSL2 RING domain)	0
SYEDKSNDFVCPICFDMIEEAYMTKCGHSFCYKCIHQSLEDNNRCPKCNYVVDNIDHLY (COP1 RING domain (UniProt Q8NHY2))	0
B2 (RNF150 RING domain)	0
FLKKLEQSFMCVCCQELVYQPVTTECFHNVCKDCLQRSFKAQVFSCPACRHDLGQNYIMI (UHRF2 RING domain (UniProt Q96PU4))	0
B3 (TRIM10 RING domain)	0
KRQCSDVDDICSICQAEFQKPILLICQHIFCEECMTLWFNREKTCPLCRTVISDHINKW (RNFT1 RING domain (UniProt Q5M7Z0))	0
B4 (PHF7 RING domain)	0
B5 (TRIM55 RING domain)	0
KIKDLNEHIVCCLCAGYFVDATTITECLHTFCKSCIVKYLQTSKYCPMCNIKIHETQPLL (PCGF1 RING domain (UniProt Q9BSM1))	0
LKQVSIRENCCSLCCDEVADTQLKPCGHSDLCMDCALQLETCPLCRKEIVSRIRQI (RSPRY1 RING domain (UniProt Q96DX4))	0
B6 (NSMCE1 RING domain)	0
B7 (RNF43 RING domain)	0

Study 4
Target: Interferon regulatory factor 7, full length, phosphomimetic (IRF7, Homo sapiens, UniProt Q92985, residues 1-503, S101K/S471D/S472D/S475D/S476D/S477D/S483D/S484D/S487D)
Method: protein-binding microarray
Molecule type: double-stranded DNA, one strand shown
Matrix: in vitro
Tested at: 250 nM
Setting: 60-bp whole probe
Together with: salmon DNA 0.4 mg/ml
Baseline: random background probes
Reading: higher = stronger binding
Constant ends, left off below: GCCTAGCAC … GTCTTGATTCGCTTGACGCTGCTG
Residues (chain): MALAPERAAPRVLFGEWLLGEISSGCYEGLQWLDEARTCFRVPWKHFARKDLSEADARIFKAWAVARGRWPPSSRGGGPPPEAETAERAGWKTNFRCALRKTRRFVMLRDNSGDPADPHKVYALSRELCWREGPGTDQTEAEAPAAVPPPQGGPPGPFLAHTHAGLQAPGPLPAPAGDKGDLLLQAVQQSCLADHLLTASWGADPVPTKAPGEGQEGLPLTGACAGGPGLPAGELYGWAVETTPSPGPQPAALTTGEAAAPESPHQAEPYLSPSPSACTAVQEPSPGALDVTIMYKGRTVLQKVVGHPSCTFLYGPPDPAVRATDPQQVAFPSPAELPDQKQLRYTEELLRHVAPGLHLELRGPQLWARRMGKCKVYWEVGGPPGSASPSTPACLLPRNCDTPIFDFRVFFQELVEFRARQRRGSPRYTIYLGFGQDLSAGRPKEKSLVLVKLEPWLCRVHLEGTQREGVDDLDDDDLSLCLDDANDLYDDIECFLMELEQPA
Sequence	log fluorescence
TTAGGTATCGGGTTCCGGTTAGTGCTA	3.04 z-score
TTAGGACGGGGGTTTCGGTTAGTGCTA	7.72 z-score
TTAGGACTGGGTATCTGTTAGTGCTAG	-0.215 z-score
TTCGAACTGGGGACTGGATTAGTGCTA	-0.132 z-score
TCAAGTTTCTCCTTTCGACTGTGCTAG	2.42 z-score
TTCATTATTGTTTCCTTCCTGTGCTAG	0.899 z-score
GACGGTATCGGTTTCGGGGCGTGCTAG	6.24 z-score
CGTAAGCAAAAATGATTGGTGTGCTAG	-0.151 z-score
TTGGATTTCAGTCTCGATTAGTGCTAG	1.98 z-score
GACCATCTCAGTCTCGAGACGTGCTAG	0.529 z-score
TAAGATATCAGTCTCGATTAGTGCTAG	1.79 z-score
TTCGGTATCGGGTTTCGGTTAGTGCTA	6.85 z-score
TCAACTTCTCTTTTTGCACTGTGCTAG	0.727 z-score
CTTTCTATGTCTGTTTTTGCGTGCTAG	1.29 z-score
TTAGTTATCGACTTTCGGTTAGTGCTA	2.1 z-score
GACGATTTCGGGTTTCTAGACGTGCTA	1.95 z-score
GACGGACTGGGGGATCGGGACGTGCTA	0.0753 z-score
TCAGCATTTTTTTTATCACTGTGCTAG	-0.0676 z-score
TTAGATTGCGGGTATCGATTAGTGCTA	0.191 z-score
TTAGATTTCAGACTGGATCAGTGCTAG	0.00692 z-score

A few entries again (study 3):
Sequence	lacZ reporter activity
KRQCSDVDDICSICQAEFQKPILLICQHIFCEECMTLWFNREKTCPLCRTVISDHINKW (RNFT1 RING domain (UniProt Q5M7Z0))	0
B5 (TRIM55 RING domain)	0
B2 (RNF150 RING domain)	0
B7 (RNF43 RING domain)	0
KIKDLNEHIVCCLCAGYFVDATTITECLHTFCKSCIVKYLQTSKYCPMCNIKIHETQPLL (PCGF1 RING domain (UniProt Q9BSM1))	0
B4 (PHF7 RING domain)	0
B1 (MSL2 RING domain)	0
